Published values collected from several papers.
± marks the error that the study gave.
cas9: CRISPR-associated endonuclease Cas9/Csn1 (cas9, Streptococcus pyogenes serotype M1, UniProt Q99ZW2)
UniProt Q99ZW2, sequence (whole entry, looked up): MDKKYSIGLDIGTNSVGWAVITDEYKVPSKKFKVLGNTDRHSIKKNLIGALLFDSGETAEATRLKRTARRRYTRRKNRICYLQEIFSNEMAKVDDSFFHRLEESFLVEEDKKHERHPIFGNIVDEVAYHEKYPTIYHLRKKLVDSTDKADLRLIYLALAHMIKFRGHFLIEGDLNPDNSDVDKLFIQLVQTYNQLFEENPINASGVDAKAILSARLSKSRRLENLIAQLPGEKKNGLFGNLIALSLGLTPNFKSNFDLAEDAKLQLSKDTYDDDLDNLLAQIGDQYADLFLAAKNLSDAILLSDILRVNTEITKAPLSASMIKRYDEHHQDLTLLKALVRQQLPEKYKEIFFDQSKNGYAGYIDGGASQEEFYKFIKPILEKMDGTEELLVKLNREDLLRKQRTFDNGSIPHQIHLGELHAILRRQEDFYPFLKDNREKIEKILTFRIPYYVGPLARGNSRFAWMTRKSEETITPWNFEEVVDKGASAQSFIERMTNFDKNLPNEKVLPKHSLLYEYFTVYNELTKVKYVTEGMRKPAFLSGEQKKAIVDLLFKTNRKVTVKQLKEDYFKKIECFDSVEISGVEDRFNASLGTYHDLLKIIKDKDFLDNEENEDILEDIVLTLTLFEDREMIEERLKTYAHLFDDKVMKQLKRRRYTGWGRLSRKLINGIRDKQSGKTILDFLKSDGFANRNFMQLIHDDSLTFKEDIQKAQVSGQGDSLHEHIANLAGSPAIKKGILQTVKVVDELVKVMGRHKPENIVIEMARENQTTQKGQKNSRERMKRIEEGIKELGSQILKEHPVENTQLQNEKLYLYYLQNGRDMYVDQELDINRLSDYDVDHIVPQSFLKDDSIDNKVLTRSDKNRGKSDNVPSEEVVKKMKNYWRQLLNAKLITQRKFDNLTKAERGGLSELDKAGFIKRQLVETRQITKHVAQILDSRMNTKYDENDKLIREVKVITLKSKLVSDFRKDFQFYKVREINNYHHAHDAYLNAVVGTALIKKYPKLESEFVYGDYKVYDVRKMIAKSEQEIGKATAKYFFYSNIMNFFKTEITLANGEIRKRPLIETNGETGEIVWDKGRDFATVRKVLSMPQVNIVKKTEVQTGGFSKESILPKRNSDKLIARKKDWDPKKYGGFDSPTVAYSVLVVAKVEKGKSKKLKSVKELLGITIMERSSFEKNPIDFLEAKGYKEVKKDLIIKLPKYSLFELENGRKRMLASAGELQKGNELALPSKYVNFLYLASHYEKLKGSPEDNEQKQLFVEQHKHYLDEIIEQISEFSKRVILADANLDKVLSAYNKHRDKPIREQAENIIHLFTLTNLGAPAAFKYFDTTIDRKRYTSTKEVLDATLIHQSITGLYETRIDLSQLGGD
HLA class I histocompatibility antigen, B alpha chain allele B*18:01: HLA class I histocompatibility antigen, B alpha chain, allele B*18:01 (Homo sapiens, UniProt P01889)
UniProt P22303, sequence (whole entry, looked up): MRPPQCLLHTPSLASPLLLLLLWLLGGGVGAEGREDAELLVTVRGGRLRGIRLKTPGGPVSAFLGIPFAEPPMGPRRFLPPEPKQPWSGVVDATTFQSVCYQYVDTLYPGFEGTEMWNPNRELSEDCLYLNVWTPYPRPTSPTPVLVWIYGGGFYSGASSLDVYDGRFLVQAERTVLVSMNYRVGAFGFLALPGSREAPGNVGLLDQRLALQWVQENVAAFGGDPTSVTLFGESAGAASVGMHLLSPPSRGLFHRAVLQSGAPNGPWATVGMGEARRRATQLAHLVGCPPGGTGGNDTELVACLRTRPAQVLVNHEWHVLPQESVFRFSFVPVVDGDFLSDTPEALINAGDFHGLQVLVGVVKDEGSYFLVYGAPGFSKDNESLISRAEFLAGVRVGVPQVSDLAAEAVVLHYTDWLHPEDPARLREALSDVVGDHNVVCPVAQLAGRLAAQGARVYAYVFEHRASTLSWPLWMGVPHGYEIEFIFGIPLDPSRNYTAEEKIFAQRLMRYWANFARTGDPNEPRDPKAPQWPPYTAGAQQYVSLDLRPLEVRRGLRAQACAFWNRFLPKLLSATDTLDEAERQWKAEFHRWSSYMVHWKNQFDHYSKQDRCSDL
UniProt P14868, sequence (whole entry, looked up): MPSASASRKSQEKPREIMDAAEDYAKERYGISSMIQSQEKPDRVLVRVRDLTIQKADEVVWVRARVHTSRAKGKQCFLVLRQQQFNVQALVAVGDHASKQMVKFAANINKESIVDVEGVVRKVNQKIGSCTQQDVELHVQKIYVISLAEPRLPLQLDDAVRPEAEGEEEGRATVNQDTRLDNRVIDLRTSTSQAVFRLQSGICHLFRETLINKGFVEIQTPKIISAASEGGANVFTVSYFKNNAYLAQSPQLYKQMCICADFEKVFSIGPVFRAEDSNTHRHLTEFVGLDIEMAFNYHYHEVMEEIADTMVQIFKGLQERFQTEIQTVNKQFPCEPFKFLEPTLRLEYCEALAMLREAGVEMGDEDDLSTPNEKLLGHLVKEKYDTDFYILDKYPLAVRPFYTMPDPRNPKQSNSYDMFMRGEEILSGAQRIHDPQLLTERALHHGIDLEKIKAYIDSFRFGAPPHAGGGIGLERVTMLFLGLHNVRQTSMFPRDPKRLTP
UniProt Q9Y5N1, sequence (whole entry, looked up): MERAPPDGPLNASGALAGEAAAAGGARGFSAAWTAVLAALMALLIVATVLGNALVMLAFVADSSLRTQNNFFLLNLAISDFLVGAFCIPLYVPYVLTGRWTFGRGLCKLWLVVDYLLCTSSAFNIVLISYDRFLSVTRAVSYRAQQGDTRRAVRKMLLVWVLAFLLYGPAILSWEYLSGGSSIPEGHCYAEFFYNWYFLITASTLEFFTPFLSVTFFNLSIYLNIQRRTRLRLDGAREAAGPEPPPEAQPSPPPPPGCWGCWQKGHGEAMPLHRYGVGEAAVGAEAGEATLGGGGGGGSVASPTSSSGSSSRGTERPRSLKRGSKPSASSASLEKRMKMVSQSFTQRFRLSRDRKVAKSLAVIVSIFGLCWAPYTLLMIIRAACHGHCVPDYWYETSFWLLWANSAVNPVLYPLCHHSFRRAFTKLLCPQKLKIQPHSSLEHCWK
UniProt P0A7E5, sequence (whole entry, unmodified, looked up): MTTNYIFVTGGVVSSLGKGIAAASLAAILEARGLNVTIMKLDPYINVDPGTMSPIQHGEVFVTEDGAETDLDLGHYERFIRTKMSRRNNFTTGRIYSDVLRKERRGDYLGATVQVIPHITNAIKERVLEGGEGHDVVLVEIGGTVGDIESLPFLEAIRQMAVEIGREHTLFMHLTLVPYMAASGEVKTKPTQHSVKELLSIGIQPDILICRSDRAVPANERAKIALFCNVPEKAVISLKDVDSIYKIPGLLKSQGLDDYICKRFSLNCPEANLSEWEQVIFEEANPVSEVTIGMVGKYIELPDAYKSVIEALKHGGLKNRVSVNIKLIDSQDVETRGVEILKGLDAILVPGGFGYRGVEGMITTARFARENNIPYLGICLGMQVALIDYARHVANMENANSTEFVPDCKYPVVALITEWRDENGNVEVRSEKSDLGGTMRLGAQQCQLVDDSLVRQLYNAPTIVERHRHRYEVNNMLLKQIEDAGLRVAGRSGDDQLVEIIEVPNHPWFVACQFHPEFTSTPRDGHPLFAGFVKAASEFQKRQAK
UniProt P18089, sequence (whole entry, looked up): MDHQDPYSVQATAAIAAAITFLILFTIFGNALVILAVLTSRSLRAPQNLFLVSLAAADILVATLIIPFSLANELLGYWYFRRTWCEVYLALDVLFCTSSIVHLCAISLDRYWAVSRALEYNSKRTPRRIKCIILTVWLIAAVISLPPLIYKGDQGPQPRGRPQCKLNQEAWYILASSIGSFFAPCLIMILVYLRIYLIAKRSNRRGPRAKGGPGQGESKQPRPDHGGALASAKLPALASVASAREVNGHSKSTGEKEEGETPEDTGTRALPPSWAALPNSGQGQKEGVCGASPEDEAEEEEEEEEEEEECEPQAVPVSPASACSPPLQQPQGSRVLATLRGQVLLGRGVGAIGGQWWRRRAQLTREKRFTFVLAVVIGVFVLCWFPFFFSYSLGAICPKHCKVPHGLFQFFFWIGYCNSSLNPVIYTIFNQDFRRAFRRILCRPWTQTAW
UniProt Q9GZZ6, sequence (whole entry, looked up): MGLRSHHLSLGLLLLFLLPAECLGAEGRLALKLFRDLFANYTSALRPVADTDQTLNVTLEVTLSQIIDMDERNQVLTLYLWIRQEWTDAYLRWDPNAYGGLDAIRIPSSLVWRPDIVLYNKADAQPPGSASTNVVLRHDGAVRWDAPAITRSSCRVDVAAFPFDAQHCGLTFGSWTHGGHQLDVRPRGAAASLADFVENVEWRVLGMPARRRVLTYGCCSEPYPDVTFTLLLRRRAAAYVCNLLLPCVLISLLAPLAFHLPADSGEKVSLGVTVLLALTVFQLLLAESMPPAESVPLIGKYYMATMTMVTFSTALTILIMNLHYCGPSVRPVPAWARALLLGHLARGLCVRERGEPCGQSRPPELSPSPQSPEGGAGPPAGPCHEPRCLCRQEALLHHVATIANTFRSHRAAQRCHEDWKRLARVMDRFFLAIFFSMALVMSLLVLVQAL
UniProt Q9UGM1, sequence (whole entry, looked up): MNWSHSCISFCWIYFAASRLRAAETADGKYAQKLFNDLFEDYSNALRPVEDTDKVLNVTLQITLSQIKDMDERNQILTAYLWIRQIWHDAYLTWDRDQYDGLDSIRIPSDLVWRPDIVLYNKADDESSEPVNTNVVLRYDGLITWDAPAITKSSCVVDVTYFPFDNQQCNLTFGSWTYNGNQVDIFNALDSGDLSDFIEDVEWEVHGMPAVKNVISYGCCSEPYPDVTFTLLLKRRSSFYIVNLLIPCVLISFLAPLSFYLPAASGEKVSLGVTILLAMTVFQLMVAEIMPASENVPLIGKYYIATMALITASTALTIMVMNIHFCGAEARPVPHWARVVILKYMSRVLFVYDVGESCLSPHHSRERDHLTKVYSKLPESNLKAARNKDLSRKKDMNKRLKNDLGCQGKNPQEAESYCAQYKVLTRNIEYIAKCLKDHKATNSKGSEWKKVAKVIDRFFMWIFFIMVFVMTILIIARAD

SMILES | target | assay | test system | conditions | IC50 [µM]
CN1CCN(c2cc(-c3ccncc3)c(-c3ccc4ccccc4c3)nn2)CC1 | Histamine H3 receptor (HRH3, Homo sapiens, UniProt Q9Y5N1) | antagonist, FLIPR calcium | – | – | 11
C[C@H]1CN(c2n[nH]c3nc(N[C@H]4CC[C@H](NS(=O)(=O)CCC(F)(F)F)CC4)ncc23)CCO1 | Aspartate--tRNA ligase, cytoplasmic (DARS1, Homo sapiens, UniProt P14868) | biochemical | – | – | ≥ 20
CC(CCc1ccccc1)NC(C)C(O)c1ccc(O)cc1 (stereo not shown) | Alpha-2B adrenergic receptor (ADRA2B, Homo sapiens, UniProt P18089) | inhibitor | – | – | 0.733
CCCCCCCCc1ccc(CCC(N)(CO)CO)cc1 | cas9 | linear substrate | Streptococcus pyogenes | – | 20 to 50
CCN1CCN(Cc2ccc(Nc3nc4nc(Oc5ccnc(NC(C)=O)c5)ncc4[nH]3)cc2C(F)(F)F)CC1 | Protein kinase 6 (Plasmodium falciparum, UniProt Q8IDW1) | enzyme activity, inhibitor | – | – | 6.3 ± 0.7
CO[C@H]1C[C@H](O[C@@H]2/C(C)=C/C[C@@H]3C[C@@H](C[C@]4(CC[C@H](C)[C@@H](C5CCCCC5)O4)O3)OC(=O)[C@@H]3C=C(C)/C(=N/O)[C@H]4OC/C(=C\C=C\[C@@H]2C)[C@]43O)O[C@@H](C)[C@@H]1O | Bile acid receptor (NR1H4, Homo sapiens, UniProt Q96RI1) | biochemical | – | – | 0.94 ± 0.11
CC[C@H](C)[C@H](NC(=O)[C@@H]1CCCN1C(=O)[C@@H](NC(=O)[C@H](CC(C)C)NC(=O)[C@H](CCC(N)=O)NC(=O)[C@H](Cc1ccccc1)NC(=O)[C@H](C)NC(=O)[C@@H](N)CCCCN)[C@@H](C)O)C(=O)N[C@@H](C)C(=O)N[C@H](C(=O)O)C(C)C | HLA class I histocompatibility antigen, B alpha chain allele B*18:01 | peptide-MHC binding, radioligand competition binding | – | – | 3.87
COc1cc(Nc2ncc(F)c(Nc3ccc4c(n3)NC(=O)C(C)(C)O4)n2)cc(OC)c1OC | Na+/K+-ATPase (pig) | ATPase activity, inhibitor | heart | – | > 10
CC(=O)N1C[C@@H](CCN2CC=C(c3c[nH]c4cc(Cl)ccc34)CC2)c2ccccc21 | Sodium-dependent serotonin transporter (SLC6A4, Homo sapiens, UniProt P31645, R104E) | – | – | – | 1.58
CN(C)C(=O)C(CCN1CCC(O)(c2ccc(Cl)cc2)CC1)(c1ccccc1)c1ccccc1 | Calcium-activated potassium channel subunit alpha-1, with LRRC26 γ1 subunit (KCNMA1, Homo sapiens, UniProt Q12791) | BK channel conductance, inhibitor, inside-out patch clamp | – | BKα/γ1, Vm 20 mV, nominally Ca2+-free | 6.2 ± 1.9
OC(CCCN1CCCCC1)(c1ccccc1)c1ccccc1 | Neuronal acetylcholine receptor; alpha9/alpha10 (Homo sapiens, UniProt Q9GZZ6+Q9UGM1) | inhibitor | – | – | 0.44 ± 0.013
O=C(O[C@@H]1Cc2c(O)cc(O)cc2O[C@@H]1c1cc(O)c(O)c(O)c1)c1cc(O)c(O)c(O)c1 | cas9 | circular plasmid substrate | Streptococcus pyogenes | – | 10 to 20
CC(C)[C@H](NC(=O)[C@H](C)NC(=O)[C@@H](N)Cc1ccccc1)C(=O)N[C@@H](CC(=O)O)C(=O)N[C@@H](C)C(=O)N[C@@H](C)C(=O)N[C@@H](CCCCN)C(=O)N[C@@H](C)C(=O)N[C@@H](Cc1ccc(O)cc1)C(=O)O | HLA class I histocompatibility antigen, B alpha chain allele B*18:01 | peptide-MHC binding, radioligand competition binding | – | – | 35.9
CNC(C)Cc1ccc2n[se]nc2c1 (stereo not shown) | Solute carrier family 22 member 1 (SLC22A1, Homo sapiens, UniProt O15245) | – | – | – | 16.4 ± 2.8
Nc1ccn([C@@H]2O[C@H](COP(=O)(O)OP(=O)(O)OP(=O)(O)O)[C@@H](O)[C@H]2O)c(=O)n1 | pyrG (Escherichia coli, UniProt P0A7E5, C268A) | enzyme activity | – | with: 6.0 mM glutamine, 1.0 mM ATP, 0.20 mM UTP | 259 ± 42
COc1ccccc1C1c2ccc(OCC(=O)c3ccccc3)cc2Oc2nc3c(c(N)c21)CCCC3 (stereo not shown) | Acetylcholinesterase (ACHE, Homo sapiens, UniProt P22303) | enzyme activity, inhibitor | – | – | 2.49

Repeated from above:
SMILES | target | assay | test system | conditions | IC50 [µM]
O=C(O[C@@H]1Cc2c(O)cc(O)cc2O[C@@H]1c1cc(O)c(O)c(O)c1)c1cc(O)c(O)c(O)c1 | cas9 | circular plasmid substrate | Streptococcus pyogenes | – | 10 to 20
